Published values pooled from the literature.
Protocols differ between the studies behind these lines. ± gives the spread as reported.

Structure (SMILES) | assay | test system | setting | scale | endpoint | result
N#CC1(c2ccc3c(N)ncnn23)OC(COP(=O)(O)OP(=O)(O)OP(=O)(O)O)C(O)C1O (stereo not drawn) | LC-MS/MS | CD-1 mouse, lung | oral, 100 mg/kg of remdesivir |  | Cmax | 151 nmol/kg
CC(C)[C@H](NC(=O)CNC(=O)[C@H](CCC(N)=O)NC(=O)[C@H](C)N)C(=O)O |  | healthy male volunteers | intravenous, 90 mg/kg/h, 2 h, together with: LPS 2 ng/kg |  | subjects with severe AE | 0%
CC(C)C[C@H](NC(=O)[C@H](CCCCN)NC(=O)[C@H](CCC(=O)O)NC(=O)[C@H](C)NC(=O)[C@@H](NC(=O)[C@H](CCCCN)NC(=O)[C@H](CC(=O)O)NC(=O)[C@H](Cc1ccc(O)cc1)NC(=O)[C@H](Cc1ccccc1)NC(=O)[C@H](C)NC(=O)[C@H](CCCCN)NC(=O)[C@H](CC(C)C)NC(=O)[C@H](Cc1c[nH]c2ccccc12)NC(=O)[C@@H](N)CC(=O)O)C(C)C)C(=O)N[C@@H](CCCCN)C(=O)N[C@@H](CCC(=O)O)C(=O)N[C@@H](C)C(=O)N[C@@H](Cc1ccccc1)C(=O)N1CCC[C@H]1C(=O)N[C@@H](CC(=O)O)C(=O)N[C@@H](Cc1c[nH]c2ccccc12)C(=O)N[C@@H](C)C(=O)N[C@@H](CCCCN)C(=O)N[C@@H](C)C(=O)N[C@@H](C)C(=O)N[C@@H](Cc1ccc(O)cc1)C(=O)N[C@@H](CC(=O)O)C(=O)N[C@@H](CCCCN)C(=O)N[C@@H](C)C(=O)N[C@@H](C)C(=O)N[C@@H](CCC(=O)O)C(=O)N[C@@H](CCCCN)C(=O)N[C@@H](C)C(=O)N[C@@H](CCCCN)C(=O)N[C@@H](CCC(=O)O)C(=O)N[C@@H](C)C(=O)N[C@@H](C)C(=O)O |  | cynomolgus monkey male, plasma | intravenous infusion, 8 mg/kg every other day, day 27 |  | volume of distribution at steady state | 0.052 L/kg
CC[C@H](C)C(=O)N1CCC(NC(=O)Nc2ccc(OC(F)(F)F)c(F)c2)CC1 |  | healthy volunteers | oral, 16 mg single dose |  | subjects with related TEAE | 0%
COc1cc2c3c(c4cc(OC)c(OC)cc4c2cc1OC)C(=O)N1CCCCC1C3 (stereo not drawn) |  | swine cells | 24 (unit not given) |  | CC50 | > 100 µM
CC(C)C[C@@H]1NC(=O)[C@@H](Cc2ccccc2)NC(=O)[C@H](CCN)NC(=O)[C@@H](NC(=O)[C@H](CN)NC(=O)[C@@H](NC(=O)CC(CN)C2CCCCC2)[C@@H](C)O)CCNC(=O)[C@H]([C@@H](C)O)NC(=O)[C@H](CCN)NC(=O)[C@H](CCN)NC1=O (stereo partly drawn) | LC-MS/MS | male CD-1 mouse, kidney homogenate | subcutaneous, 17.2 mg/kg single dose, 4 h |  | kidney concentration | 198000 ng/g
CN(C)C(CNC(=O)Nc1cc(C(F)(F)F)ccc1N1CCOCC1)c1ccncc1 (stereo not drawn) |  | mouse, serum | intraperitoneal, 180 mg/kg single dose |  | serum globulin | 1.5 g/dL
CC(=O)N(CCCc1cn(-c2ccc(CN3CCOCC3)cc2)nn1)CCNc1ccnc2cc(Cl)ccc12 |  | monkey cells |  |  | CC50 | > 100 µM
O=C(O)CCC(NP(=O)(O)OCCC[C@@H](NC(=O)CCC(NC(=O)CCCCCNC(=O)CCCCCNC(=O)c1ccc([18F])cc1)C(=O)O)C(=O)O)C(=O)O (stereo partly drawn) | radioactivity biodistribution | mouse, CWR22Rv1 xenograft, kidney | 2 h |  | kidney uptake | 7.13 %ID/g
C/C=C/C=C/C/C=C/CCCCCCCc1cccc(O)c1O |  | female Kunming mice, tumour-bearing, tumor | intravenous, 10 mg/kg, 12 h |  | tissue concentration | 18400 ± 1340 ng/g
CC(C)[C@H](NC(=O)[C@H](Cc1ccccc1)NC(=O)[C@H](Cc1ccccc1)NC(=O)[C@H](CC(=O)O)NC(=O)[C@H](CC(=O)O)NC(=O)CNC(=O)[C@H](CCCCN)NC(=O)[C@H](CCCCN)NC(=O)[C@@H](N)Cc1c[nH]cn1)C(=O)N[C@@H](Cc1ccc(O)cc1)C(=O)N[C@@H](C)C(=O)N[C@@H](CC(=O)O)C(=O)N[C@@H](Cc1ccc(O)cc1)C(=O)O | cytotoxicity | human cells | 2 (unit not given) |  | CC50 | > 100 µM
O=c1cc(-c2ccccc2)oc2c(Br)c(O)c(O)c(O)c12 |  | C57BL/6 mouse, plasma | po, 50 mg/kg |  | Vz | 7100 ± 3030 mL
CC[C@H](C)[C@H](N)C(=O)N[C@@H](CC(N)=O)C(=O)N[C@@H](Cc1c[nH]cn1)C(=O)N[C@H](C(=O)NCC(=O)NCC(=O)N[C@H](C(=O)NCC(=O)NCC(=O)N[C@@H](C)C(=O)N[C@H](C(=O)N[C@@H](CCSC)C(=O)N[C@@H](C)C(=O)N1CCC[C@H]1C(=O)N[C@H](C(=O)N[C@@H](C)C(=O)N[C@H](C(=O)N[C@H](C(=O)N[C@@H](CCCNC(=N)N)C(=O)N[C@@H](CCC(N)=O)C(=O)N[C@@H](CC(C)C)C(=O)N[C@H](C(=O)NCC(=O)NCC(=O)N[C@@H](CS)C(=O)NCC(=O)NCC(=O)NCC(=O)N[C@@H](CCCCN)C(=O)N[C@@H](CCC(=O)O)C(=O)N[C@H](C(=O)N[C@@H](C)C(=O)N[C@@H](C)C(=O)N[C@@H](C)C(=O)N[C@@H](CCCCN)C(=O)N[C@@H](Cc1ccccc1)C(=O)N[C@@H](CCC(=O)O)C(=O)N[C@@H](CCCNC(=N)N)C(=O)N[C@@H](CCC(N)=O)C(=O)N[C@@H](Cc1c[nH]cn1)C(=O)N[C@@H](CCSC)C(=O)N[C@@H](CC(=O)O)C(=O)N[C@@H](CO)C(=O)O)[C@@H](C)O)C(C)C)[C@@H](C)O)C(C)C)C(C)C)[C@@H](C)CC)[C@@H](C)O)C(C)C | dynamic light scattering | phosphate buffer | 25 µM, pH 7.4, 25 °C |  | particle size | 47 ± 23 nm
CCCCCCCCCCCCC(=O)O.O=C1CCCC2C3CCCN4CCCC(CN12)C34 (stereo not drawn) | electrical conductivity | water | 308.15 K |  | standard entropy of aggregation | 109 J/(mol·K)
Nc1ccn(CC2COP(=O)(OCCNC(=O)CCCCC3SCC4NC(=O)NC43)CO2)c(=O)n1 (mixture of isomers) |  | rabbit, retina-choroid |  | relative to: parent CDF | partition coefficient | 3.07 fold
O=C(N=P12CN3CN(CN(C3)C1)C2)c1ccccn1.[Cl][Au+][Cl].[O-][Cl+3]([O-])([O-])[O-] | NMR | acetonitrile | room temperature |  | stability time | 24 h
COc1ccnc(-c2cc(OC)ccn2)c1.O.[C-]#[O+].[C-]#[O+].[C-]#[O+].[Re+] | RP-HPLC C18 column, refers to: free diimine ligand | MeCN:water 40:60, 0.1% TFA | isocratic elution |  | capacity factor | 0.74
COc1cc(NC(=O)C(=O)c2c(C)n(Cc3ccc(Cl)cc3)c3ccc(C)cc23)ccn1 |  | cynomolgus monkey, plasma | oral, 10 mg/kg |  | half-life | 18.7 h
CC[C@H](C)[C@H](NC(=O)CNC(=O)[C@@H](NC(=O)[C@H](Cc1ccc(O)cc1)NC(=O)[C@@H](NC(=O)[C@H](CO)NC(=O)[C@@H](NC(=O)[C@H](C)NC(=O)[C@@H]1CCCN1C(=O)[C@@H](NC(=O)[C@H](Cc1ccccc1)NC(=O)[C@H](CCCCN)NC(=O)[C@H](CCC(=O)O)NC(=O)[C@H](Cc1ccc(O)cc1)NC(=O)[C@H](CC(C)C)NC(=O)[C@H](CC(=O)O)NC(=O)[C@H](CCCNC(=N)N)NC(=O)[C@H](CC(C)C)NC(=O)[C@H](CCCCN)NC(=O)[C@H](CCC(=O)O)NC(=O)[C@H](Cc1ccccc1)NC(=O)[C@@H](NC(=O)[C@H](CCC(=O)O)NC(=O)[C@H](CCCCN)NC(=O)[C@H](CC(C)C)NC(=O)[C@H](Cc1ccc(O)cc1)NC(=O)[C@@H](N)CC(=O)O)C(C)C)[C@@H](C)O)C(C)C)[C@@H](C)O)[C@@H](C)O)C(=O)N[C@@H](Cc1ccccc1)C(=O)N[C@H](C(=O)N[C@@H](CC(=O)O)C(=O)N[C@@H](CCC(N)=O)C(=O)N[C@H](C(=O)N[C@@H](CC(C)C)C(=O)N[C@@H](CO)C(=O)N[C@H](C(=O)N[C@@H](CC(C)C)C(=O)N[C@@H](CCCCN)C(=O)NCC(=O)N[C@@H](CCC(=O)O)C(=O)N[C@@H](CCC(=O)O)C(=O)O)C(C)C)C(C)C)[C@@H](C)O |  | C57BL/6 mice, female, plasma | dose not given |  | clearance | ~0.133 mL/min/kg
CC(C)[C@H](NC(=O)CNC(=O)[C@H](CCC(N)=O)NC(=O)[C@H](C)N)C(=O)O |  | human | 1 mg/kg single dose |  | subjects with serious adverse events | 0%
O=C(c1ccc(F)cc1)C1CCN(C2Cc3c(cccc3OCC[18F])CC2O)CC1 (single isomer, unassigned; (-)) |  | Sprague-Dawley rat, male, heart | intravenous, dose not given, 5 min |  | tissue uptake | 0.706 ± 0.17 %ID/g
